Assay results pooled from the literature.
Protocols differ between the studies behind these lines. Numbers after ± are the reported error.
Rc3h1: Rc3h1 411-454 (Mus musculus, UniProt Q4VGL6)
Sequence of UniProt Q4VGL6 (whole entry, looked up): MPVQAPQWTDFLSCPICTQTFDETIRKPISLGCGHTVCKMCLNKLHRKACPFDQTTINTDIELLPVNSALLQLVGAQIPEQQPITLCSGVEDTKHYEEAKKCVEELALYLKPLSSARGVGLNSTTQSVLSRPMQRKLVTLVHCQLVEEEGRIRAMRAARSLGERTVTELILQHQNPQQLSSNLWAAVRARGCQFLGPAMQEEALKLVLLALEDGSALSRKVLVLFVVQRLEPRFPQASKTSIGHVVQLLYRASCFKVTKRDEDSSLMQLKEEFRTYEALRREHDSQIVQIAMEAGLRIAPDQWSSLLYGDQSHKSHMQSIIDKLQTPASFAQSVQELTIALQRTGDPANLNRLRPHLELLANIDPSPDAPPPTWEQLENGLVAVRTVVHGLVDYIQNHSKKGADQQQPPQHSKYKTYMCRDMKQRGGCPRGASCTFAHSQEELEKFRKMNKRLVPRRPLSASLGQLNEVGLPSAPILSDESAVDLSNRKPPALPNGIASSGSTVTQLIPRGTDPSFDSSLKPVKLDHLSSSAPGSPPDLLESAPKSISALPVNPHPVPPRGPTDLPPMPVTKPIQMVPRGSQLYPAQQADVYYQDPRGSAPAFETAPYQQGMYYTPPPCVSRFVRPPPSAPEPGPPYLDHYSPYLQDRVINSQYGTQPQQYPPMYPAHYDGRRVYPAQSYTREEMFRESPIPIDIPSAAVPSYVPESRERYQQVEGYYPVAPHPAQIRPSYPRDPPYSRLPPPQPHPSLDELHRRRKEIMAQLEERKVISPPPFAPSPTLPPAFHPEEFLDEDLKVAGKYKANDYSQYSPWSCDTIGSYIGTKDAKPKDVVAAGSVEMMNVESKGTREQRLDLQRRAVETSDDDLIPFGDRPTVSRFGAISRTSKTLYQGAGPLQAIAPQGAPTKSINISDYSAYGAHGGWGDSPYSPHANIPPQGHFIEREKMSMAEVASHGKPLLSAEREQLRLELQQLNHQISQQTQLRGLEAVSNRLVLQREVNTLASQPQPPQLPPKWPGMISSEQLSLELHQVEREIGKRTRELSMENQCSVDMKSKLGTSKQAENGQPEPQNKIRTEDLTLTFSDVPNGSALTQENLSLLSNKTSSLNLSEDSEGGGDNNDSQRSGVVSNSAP
Fibroin-modulator-binding protein-1: Fibroin-modulator-binding protein-1 99-193 (Bombyx mori, UniProt Q5FBS0)
Sequence of UniProt Q8W4L5 (whole entry, looked up): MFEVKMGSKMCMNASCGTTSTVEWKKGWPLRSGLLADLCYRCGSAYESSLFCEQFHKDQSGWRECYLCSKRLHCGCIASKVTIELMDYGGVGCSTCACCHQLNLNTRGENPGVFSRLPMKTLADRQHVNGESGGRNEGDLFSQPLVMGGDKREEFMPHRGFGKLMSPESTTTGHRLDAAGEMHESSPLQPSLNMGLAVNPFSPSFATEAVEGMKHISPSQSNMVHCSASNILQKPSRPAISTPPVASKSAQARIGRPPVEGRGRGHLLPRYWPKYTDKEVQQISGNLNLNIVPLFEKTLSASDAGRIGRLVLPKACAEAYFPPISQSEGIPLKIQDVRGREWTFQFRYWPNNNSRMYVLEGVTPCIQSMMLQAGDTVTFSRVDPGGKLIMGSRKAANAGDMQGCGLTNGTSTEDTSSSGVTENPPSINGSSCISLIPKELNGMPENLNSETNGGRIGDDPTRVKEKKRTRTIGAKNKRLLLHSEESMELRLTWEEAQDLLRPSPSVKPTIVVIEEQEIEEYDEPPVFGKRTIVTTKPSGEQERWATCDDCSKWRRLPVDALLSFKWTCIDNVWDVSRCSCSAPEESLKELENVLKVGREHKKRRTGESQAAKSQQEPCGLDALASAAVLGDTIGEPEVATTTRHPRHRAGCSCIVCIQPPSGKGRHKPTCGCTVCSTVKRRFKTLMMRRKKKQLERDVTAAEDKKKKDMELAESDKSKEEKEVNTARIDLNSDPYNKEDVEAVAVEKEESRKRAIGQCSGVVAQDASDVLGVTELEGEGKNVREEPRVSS
Sequence of UniProt P55265 (whole entry, looked up): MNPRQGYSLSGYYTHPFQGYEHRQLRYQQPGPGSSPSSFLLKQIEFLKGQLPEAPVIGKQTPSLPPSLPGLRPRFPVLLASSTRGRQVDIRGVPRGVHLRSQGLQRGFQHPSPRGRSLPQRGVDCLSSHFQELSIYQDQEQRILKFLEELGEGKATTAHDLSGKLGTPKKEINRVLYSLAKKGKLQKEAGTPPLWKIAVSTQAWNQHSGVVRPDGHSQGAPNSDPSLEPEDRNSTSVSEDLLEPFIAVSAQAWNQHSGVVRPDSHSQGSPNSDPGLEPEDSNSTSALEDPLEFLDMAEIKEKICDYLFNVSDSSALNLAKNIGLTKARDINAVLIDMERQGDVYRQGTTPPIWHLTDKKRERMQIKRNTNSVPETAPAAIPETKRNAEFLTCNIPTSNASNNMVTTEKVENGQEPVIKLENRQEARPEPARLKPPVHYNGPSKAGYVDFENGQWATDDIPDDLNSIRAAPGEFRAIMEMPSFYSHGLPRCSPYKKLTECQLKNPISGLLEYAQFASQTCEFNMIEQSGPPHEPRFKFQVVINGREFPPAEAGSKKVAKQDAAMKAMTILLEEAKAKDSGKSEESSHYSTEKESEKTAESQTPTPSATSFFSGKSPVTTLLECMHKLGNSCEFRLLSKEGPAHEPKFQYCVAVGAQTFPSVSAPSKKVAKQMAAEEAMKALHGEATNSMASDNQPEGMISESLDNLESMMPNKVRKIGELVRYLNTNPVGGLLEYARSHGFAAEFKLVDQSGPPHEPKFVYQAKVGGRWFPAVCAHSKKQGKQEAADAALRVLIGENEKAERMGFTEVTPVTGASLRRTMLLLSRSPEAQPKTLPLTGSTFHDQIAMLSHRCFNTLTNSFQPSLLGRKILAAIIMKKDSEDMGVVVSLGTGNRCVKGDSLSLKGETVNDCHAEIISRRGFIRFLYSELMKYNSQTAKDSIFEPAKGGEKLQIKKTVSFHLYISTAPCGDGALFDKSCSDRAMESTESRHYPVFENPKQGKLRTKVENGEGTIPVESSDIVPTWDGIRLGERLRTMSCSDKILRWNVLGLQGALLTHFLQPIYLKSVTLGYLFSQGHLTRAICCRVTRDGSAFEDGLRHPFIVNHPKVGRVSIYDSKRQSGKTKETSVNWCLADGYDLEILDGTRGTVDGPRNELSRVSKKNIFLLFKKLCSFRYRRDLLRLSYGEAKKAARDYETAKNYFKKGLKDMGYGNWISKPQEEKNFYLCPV
Sequence of UniProt P60842 (whole entry, looked up): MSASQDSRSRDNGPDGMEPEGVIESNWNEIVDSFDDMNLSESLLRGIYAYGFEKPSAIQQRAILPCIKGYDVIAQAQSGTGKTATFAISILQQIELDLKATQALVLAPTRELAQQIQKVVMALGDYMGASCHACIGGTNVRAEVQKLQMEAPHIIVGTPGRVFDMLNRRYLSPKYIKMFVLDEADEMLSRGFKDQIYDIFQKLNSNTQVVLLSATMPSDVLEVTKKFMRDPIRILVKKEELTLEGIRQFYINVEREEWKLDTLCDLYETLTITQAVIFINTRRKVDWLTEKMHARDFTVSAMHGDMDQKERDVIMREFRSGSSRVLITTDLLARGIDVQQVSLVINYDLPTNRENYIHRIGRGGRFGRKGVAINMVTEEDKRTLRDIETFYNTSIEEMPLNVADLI
Sequence of UniProt P03023 (whole entry, unmodified, looked up): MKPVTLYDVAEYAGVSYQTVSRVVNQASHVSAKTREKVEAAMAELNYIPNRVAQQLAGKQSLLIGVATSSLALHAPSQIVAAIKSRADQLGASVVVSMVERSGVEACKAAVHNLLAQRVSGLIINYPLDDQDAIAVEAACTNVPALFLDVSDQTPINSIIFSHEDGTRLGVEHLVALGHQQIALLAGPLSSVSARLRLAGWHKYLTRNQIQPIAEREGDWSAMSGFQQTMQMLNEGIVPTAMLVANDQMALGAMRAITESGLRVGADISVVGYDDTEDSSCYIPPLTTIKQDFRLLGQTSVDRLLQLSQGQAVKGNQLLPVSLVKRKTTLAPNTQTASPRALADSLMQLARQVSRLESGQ
Sequence of UniProt Q64MA1 (whole entry, looked up): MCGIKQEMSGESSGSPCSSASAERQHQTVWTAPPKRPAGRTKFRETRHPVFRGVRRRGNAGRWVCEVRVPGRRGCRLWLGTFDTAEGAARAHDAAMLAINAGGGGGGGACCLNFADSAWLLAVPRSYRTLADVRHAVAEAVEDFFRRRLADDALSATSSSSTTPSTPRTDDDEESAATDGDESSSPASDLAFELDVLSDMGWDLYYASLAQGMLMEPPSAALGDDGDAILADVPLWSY
Sequence of UniProt Q13YL3 (whole entry, looked up): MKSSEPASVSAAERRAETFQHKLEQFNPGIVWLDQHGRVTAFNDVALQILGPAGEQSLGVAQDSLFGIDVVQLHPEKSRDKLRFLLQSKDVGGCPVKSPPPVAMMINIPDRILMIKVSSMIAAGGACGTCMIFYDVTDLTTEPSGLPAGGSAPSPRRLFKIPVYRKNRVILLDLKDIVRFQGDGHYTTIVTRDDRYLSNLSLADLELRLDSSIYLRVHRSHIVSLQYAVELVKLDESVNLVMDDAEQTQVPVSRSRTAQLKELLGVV
Sequence of UniProt Q9Y3Z3 (whole entry, looked up): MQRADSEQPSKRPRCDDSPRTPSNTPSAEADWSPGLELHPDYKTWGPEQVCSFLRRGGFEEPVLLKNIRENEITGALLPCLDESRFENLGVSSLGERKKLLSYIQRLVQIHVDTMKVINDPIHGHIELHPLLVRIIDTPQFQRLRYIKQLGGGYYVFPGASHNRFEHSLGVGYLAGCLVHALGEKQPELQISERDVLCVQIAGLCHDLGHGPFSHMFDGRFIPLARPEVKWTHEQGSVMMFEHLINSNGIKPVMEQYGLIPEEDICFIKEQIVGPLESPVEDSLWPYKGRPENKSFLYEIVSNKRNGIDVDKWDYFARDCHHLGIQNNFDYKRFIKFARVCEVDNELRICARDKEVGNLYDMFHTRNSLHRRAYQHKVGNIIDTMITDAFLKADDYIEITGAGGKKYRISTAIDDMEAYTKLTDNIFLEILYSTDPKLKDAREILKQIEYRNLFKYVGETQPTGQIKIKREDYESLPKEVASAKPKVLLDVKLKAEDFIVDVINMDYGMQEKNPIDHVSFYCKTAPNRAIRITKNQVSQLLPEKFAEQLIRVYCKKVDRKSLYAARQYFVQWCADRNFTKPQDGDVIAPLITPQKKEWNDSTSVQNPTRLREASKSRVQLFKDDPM

CGCGCGCGCGCGCGCG (XNA; LNA self-complementary duplex) — binding (ADAR 133-199 (Homo sapiens, UniProt P55265); EMSA; modified nucleic acid, one strand shown): binds
TATCGAGTTGAAAAAAAAACTCCTCGGTG (dsDNA) — binding (Ethylene-responsive transcription factor 13 (Nicotiana attenuata, UniProt A0A1J6JM52); EMSA; double-stranded DNA, one strand shown): no binding
TTTTTTTT (ssDNA) — binding (Rc3h1; NMR; single-stranded DNA): binds
AGTTGGCAAGTC (dsDNA) — binding (NFIB 14-176 R117A/K126A (Homo sapiens, UniProt O00712); BLI; double-stranded DNA, one strand shown; added: Zn2+ 1 mM): no binding
GGTTAGGGTTAG (ssDNA; 5'-phosphate) — binding (Pot1 1-301 (Mus musculus, UniProt Q91WC1); EMSA; single-stranded DNA): binds
AGAGAGAGAGAGAGAG (ssRNA) — binding (EIF4A1 1-406 (Homo sapiens, UniProt P60842); fluorescence polarization; RNA; added: ATP, silvestrol 10 µM): binds
UUAUUAUUUGUU (ssRNA) — binding (pos-1 97-173 (Caenorhabditis elegans, UniProt G5EF15); NMR 15N-1H HSQC; RNA): binds
ACACATTATGTTGTTTATTGTATGGCCAACATTTTGCCTAACA (dsDNA) — binding (SPL13 1-401 (Vitis vinifera, UniProt F6GSW2); EMSA; double-stranded DNA, one strand shown): no binding
GCAGCUCGGGGAUCAUGGCCCACUGAACCCCCAAGCGC (structured RNA) — binding (RELA/NFKB1 RHR domains (Homo sapiens); EMSA; folded RNA): binds
GGCGGCGGCATTGTCCGGCGCGCGG (dsDNA) — binding (Sox2 41-119 (Mus musculus, UniProt P48432); EMSA; double-stranded DNA, one strand shown): binds
CTTCTTTATTTTATTGTCCACGTAAATAAAAATCCATTATCT (dsDNA) — binding (Transcription factor RF2b full length assumed (Ziziphus jujuba, UniProt A0A6P3ZIC3); EMSA; double-stranded DNA, one strand shown): binds
GCTAGTTGGCGCGCGTGAACCCGCCGTTCGGGAAATTGCGT (dsDNA; blunt) — binding (rcoM1 full length assumed (Paraburkholderia xenovorans, UniProt Q13YL3); fluorescence anisotropy; double-stranded DNA, one strand shown; Fe(II)-CO): no binding
TAGTACTTGATATATCTTAAGCCCACTGTTCTGTTTTAGCGAGGAAAATGTTACCGGCGA (dsDNA) — binding (CCA1 full length assumed (Arabidopsis thaliana, UniProt P92973); EMSA; double-stranded DNA, one strand shown): binds
CCGACCGACCGA (dsDNA) — Kd (Fibroin-modulator-binding protein-1; ITC; double-stranded DNA, one strand shown): 8.56 ± 0.871 µM
CTCAATTCTGTCCTATTTCTTGTATATAAAACTTCTCCATCTTGTAATCG (dsDNA) — binding (VAL1 289-396 (Arabidopsis thaliana, UniProt Q8W4L5); EMSA; double-stranded DNA, one strand shown): no binding
AAGGTGTGTGGGTGTGGTAATCT (dsDNA) — binding (RAP1/Yku70/Yku80 (Saccharomyces cerevisiae); EMSA; double-stranded DNA, one strand shown): binds
TCGTCGTTTTGTCGTTTTGTCGTT (ssDNA) — binding (AGER 23-342 (Homo sapiens, UniProt Q15109); competition EMSA; single-stranded DNA): binds
CAGCCAACTAAACTA (dsDNA) — binding (tnsD 1-318 (Escherichia coli, UniProt P13991); EMSA; double-stranded DNA, one strand shown): no binding
GTGTGGTTAATATG (dsDNA) — binding (RNJ 604-911 (Arabidopsis thaliana, UniProt Q84W56); EMSA; double-stranded DNA, one strand shown): no binding
ATTTATATTATTTATTCATATTTATATTTA (ssDNA) — binding (APOBEC3F 1-185 W126A (Homo sapiens, UniProt Q8IUX4); EMSA; single-stranded DNA): no binding
ATTGCCGATGCCCGCAGGCTCC (dsDNA) — binding (ddrC 1-231 (Deinococcus radiodurans, UniProt Q9RYE6); EMSA; double-stranded DNA, one strand shown; 100 nM): no binding
GGTGGTGGTGGTGGTGGT (ssDNA) — binding (recA full length assumed F204M (Escherichia coli, UniProt P0A7G6); fluorescence anisotropy; single-stranded DNA; added: ATPγS): binds
CCAATCAATAGCTGAAAACTGCGCAGGAGA (dsDNA) — binding (ERF-D2 full length assumed (Solanum lycopersicum, UniProt A0A3Q7JX06); EMSA; double-stranded DNA, one strand shown; mutant probe): no binding
AGCCGATGGAATCATCGGTCCGATCAACGTCGCCTTCATTGCATCAGACTCACCAT (dsDNA) — binding (HY5 full length assumed (Arabidopsis thaliana, UniProt O24646); EMSA; double-stranded DNA, one strand shown): binds
CAGTATGGTAGTGTGTATAATCAGTGTGGTAGTGTATTTTCATTC (dsDNA) — binding (gbp (Glycine max, UniProt Q8LKV1); EMSA; double-stranded DNA, one strand shown): no binding
ATAAGTCTAAGACAATTGTTCCTTTTTCTT (dsDNA) — binding (HY5 1-158 (Solanum lycopersicum, UniProt Q9SM50); EMSA; double-stranded DNA, one strand shown): binds
CGGCCGGGCGCCCGGCATGGCGGCCTATAAAAGGGC (dsDNA) — binding (Mot1/TBP Mot1 1-1886; TBP 1-255 (Chaetomium thermophilum); cryo-EM structure; double-stranded DNA, one strand shown; added: ADP-BeF3; Mg2+): binds
UAUUU (ssRNA) — binding (Rc3h1; NMR; RNA): binds
ATAAGTCACATGATGATATTTGATTTTATTATATTTTTAAAAAAAGTAAAAAATAAAAAGTAGTTTATTTTTAAAAAATAAAATTTAAAATATTTCACAAAATGATTTCCGAA (dsDNA) — binding (CENP-I 1-683 (Thermochaetoides thermophila, UniProt G0SFF7); EMSA; double-stranded DNA, one strand shown): binds
CTATTCATCTATCATAAATTAATTTCTCGCGGGGGTAAGAATAACTAATCACTGAACAAA (dsDNA) — binding (LHY full length assumed (Arabidopsis thaliana, UniProt Q6R0H1); EMSA; double-stranded DNA, one strand shown): no binding
AAGGTGTGTGGGTGTGA (dsDNA) — binding (RAP1 1-827 (Saccharomyces cerevisiae, UniProt P11938); EMSA; double-stranded DNA, one strand shown): binds
AACAGAAUGGGACUGUUC (ssRNA) — binding (NCL 300-650 (Homo sapiens, UniProt P19338); pull-down competition, competition; RNA): binds
TGTTGTGTGGAATTGTGAGCGGATAACAATTTCACACAGG (dsDNA (Escherichia coli); blunt) — binding (lacI full length assumed N125C/D149C (Escherichia coli, UniProt P03023); filter binding; double-stranded DNA, one strand shown): binds
ACCAAGCGGGATGCGGAGCCGCCGCCGCCGTCG (dsDNA; blunt) — binding (WT1 zinc finger domain 323-435 (Homo sapiens); EMSA; double-stranded DNA, one strand shown): no binding
AGCGAGCGAGCG (dsDNA) — Kd (Fibroin-modulator-binding protein-1; ITC; double-stranded DNA, one strand shown): 9 µM
DNA 1 TTGATAAGAGGTCATTTTTGCGGATGGCTTAGAGCTTAATTGCTGAATCTGGTGCTGTAGCTCAACATGTTTTAAATATGCAATGAC / DNA 2 TTAAAACATGTTGAGCTACAGCACCAGATTCAGCAATTAAGCTCTAAGCCATCCGCAAAAATGACCTCTTATCAA (dsDNA; 3' 12 nt overhang) — binding (MGM101 23-269 (Saccharomyces cerevisiae, UniProt P32787); native MS; double-stranded DNA): binds
GGGCGAAUUCUGCUCCACGGCGGCACCUACUGCUCCACGGCGGCACCUACUGCUCCACGGCGGCACCUACA (ssRNA) — binding (GPATCH4 full length assumed (Homo sapiens, UniProt Q5T3I0); pull-down; RNA; radiolabelled RNA, denaturing PAGE readout): binds
ACCAAGCGGGTTGCGGAGCCGCCGCCGCCGCCG (dsDNA; blunt) — binding (WT1 zinc finger domain 323-435 (Homo sapiens); EMSA; double-stranded DNA, one strand shown): no binding
CACTATCGGAAAAAGGGCGACACGGATATGTT (ssDNA) — binding (SAMHD1 full length assumed (Homo sapiens, UniProt Q9Y3Z3); fluorescence anisotropy; single-stranded DNA): binds
GTGACAATGCTATTTGGCCATGTCGGTATGGTTGGCGTTAGGGGTGA (dsDNA) — binding (DREB1A 1-238 (Oryza sativa, UniProt Q64MA1); EMSA; double-stranded DNA, one strand shown): binds

Repeated from above:
GCAGCUCGGGGAUCAUGGCCCACUGAACCCCCAAGCGC (structured RNA) — binding (RELA/NFKB1 RHR domains (Homo sapiens); EMSA; folded RNA): binds
GGCGGCGGCATTGTCCGGCGCGCGG (dsDNA) — binding (Sox2 41-119 (Mus musculus, UniProt P48432); EMSA; double-stranded DNA, one strand shown): binds
CTTCTTTATTTTATTGTCCACGTAAATAAAAATCCATTATCT (dsDNA) — binding (Transcription factor RF2b full length assumed (Ziziphus jujuba, UniProt A0A6P3ZIC3); EMSA; double-stranded DNA, one strand shown): binds
